Measured values gathered from unrelated publications.
Parts stem from different laboratories: compare values within a part only. Substitutions count along the parent as printed.

Block 1
Target: UDP-N-acetylglucosamine--peptide N-acetylglucosaminyltransferase 110 kDa subunit (OGT, Homo sapiens, UniProt O15294)
UniProt O15294, sequence (whole entry, looked up): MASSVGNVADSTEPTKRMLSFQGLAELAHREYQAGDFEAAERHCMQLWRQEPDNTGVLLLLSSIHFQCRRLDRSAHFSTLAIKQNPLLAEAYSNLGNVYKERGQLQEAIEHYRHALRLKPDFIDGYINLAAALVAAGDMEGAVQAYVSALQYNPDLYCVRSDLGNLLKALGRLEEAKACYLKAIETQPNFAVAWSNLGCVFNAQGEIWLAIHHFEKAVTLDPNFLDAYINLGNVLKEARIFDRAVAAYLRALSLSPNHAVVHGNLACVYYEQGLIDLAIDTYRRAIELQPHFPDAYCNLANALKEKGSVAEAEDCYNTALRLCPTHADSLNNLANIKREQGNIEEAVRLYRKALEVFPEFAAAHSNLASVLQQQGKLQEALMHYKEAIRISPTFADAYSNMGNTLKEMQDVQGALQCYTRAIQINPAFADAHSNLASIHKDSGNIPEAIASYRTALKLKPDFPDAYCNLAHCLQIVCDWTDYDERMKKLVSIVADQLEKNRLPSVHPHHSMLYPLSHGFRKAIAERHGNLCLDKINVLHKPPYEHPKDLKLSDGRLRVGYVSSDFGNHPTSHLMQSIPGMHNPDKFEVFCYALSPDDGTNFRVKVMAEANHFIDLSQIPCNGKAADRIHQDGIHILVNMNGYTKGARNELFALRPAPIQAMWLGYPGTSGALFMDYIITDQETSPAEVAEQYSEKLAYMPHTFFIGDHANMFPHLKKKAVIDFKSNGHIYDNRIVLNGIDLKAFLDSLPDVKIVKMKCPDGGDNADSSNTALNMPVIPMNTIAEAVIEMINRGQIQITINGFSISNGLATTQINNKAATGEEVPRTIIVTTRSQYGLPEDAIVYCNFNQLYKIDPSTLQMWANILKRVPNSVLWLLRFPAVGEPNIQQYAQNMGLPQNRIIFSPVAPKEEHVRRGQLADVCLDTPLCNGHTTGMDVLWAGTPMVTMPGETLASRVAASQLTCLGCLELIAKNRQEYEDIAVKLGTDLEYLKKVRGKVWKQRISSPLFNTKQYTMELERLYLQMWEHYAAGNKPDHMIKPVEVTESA
Observed: binding
Technique: phage display NGS
Form: peptide
Notes: panning round 2
Relative to: input library
Molecule | minimum log2 enrichment ratio
STSYVPIYQIDYAHM | 3.16
EEVPSQYAPYYEITY | 1.71
HWTSHYQHMPVHGDH | 2.82
QPYQHNFYHWHAQPS | 2.41
IEMHHQHHAHLLNR | 2.82
QMHHHVIMGHHIGHT | 2.25

Block 2
Target: inorganic phosphate, free oxyanion
Technique: microfluidic competitive inhibition
Sample: in vitro, cell-free expressed
Concentration: not given
Notes: derived from inhibition constants, unchanged parent 615000 nM
Direction: lower = stronger binding
Parent: PafA, mature enzyme, eGFP fusion (Elizabethkingia meningoseptica, UniProt Q9KJX5); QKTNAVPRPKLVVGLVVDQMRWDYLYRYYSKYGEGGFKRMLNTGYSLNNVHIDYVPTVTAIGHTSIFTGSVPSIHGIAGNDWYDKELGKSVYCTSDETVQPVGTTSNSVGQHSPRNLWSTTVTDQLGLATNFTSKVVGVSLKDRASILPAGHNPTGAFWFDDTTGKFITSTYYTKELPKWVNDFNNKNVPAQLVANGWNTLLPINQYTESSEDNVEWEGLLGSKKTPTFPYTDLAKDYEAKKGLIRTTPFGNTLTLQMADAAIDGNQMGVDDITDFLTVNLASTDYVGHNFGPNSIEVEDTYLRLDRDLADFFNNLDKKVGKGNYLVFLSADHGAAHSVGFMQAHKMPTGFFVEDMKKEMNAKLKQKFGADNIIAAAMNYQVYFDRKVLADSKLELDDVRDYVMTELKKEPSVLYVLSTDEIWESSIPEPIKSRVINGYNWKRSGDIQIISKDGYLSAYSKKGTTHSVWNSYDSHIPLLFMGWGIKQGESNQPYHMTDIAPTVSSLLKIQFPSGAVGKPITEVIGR
Variant | phosphate dissociation constant [µM]
D355G | 486
G138V | 393
G251V | 413
Q257V | 638
V320G | 749
A515V | 645

Block 3
Target: Interferon regulatory factor 5, full length, phosphomimetic (IRF5, Homo sapiens, UniProt Q13568-2, residues 1-514, S451D/S453D/S456D/S462D)
Technique: protein-binding microarray
Form: double-stranded DNA, one strand shown
Sample: in vitro
Concentration: 940 nM top
Notes: 60-bp whole probe
With: salmon DNA 0.4 mg/ml
Relative to: random background probes
Direction: higher = stronger binding
All sequences stand within: GCCTAGCAC … GTCTTGATTCGCTTGACGCTGCTG
Oligonucleotide | fitted relative affinity [z-score]
GACGATTTCAGTTACGAGACGTGCTAG | 0.311
GACGGGCTCCTTCTCCTGACGTGCTAG | -0.123
TTAGGTCTCGGTATCGGTCAGTGCTAG | 6.81
TTAGGTATCGGTTTCGGTTCGTGCTAG | 10.8
TCATTTTTGCTTTCTTTACTGTGCTAG | 2.27
TCAACCATCCTATGTAGAACTGTGCTA | -0.0152
TCCTGGAGTCTATGCTGCTGGTGCTAG | -0.311
TTAGGTCTTGGTATCGGTTAGTGCTAG | 6.06

Block 4
Target: CCNB1, cyclin fold, Cln2 fusion (human)
Technique: yeast growth competition, sequencing
Sample: yeast
Notes: strong parent motif
Relative to: not given
Direction: higher = stronger binding
Parent: viral docking peptide; YKVKRRLVFGADD; partner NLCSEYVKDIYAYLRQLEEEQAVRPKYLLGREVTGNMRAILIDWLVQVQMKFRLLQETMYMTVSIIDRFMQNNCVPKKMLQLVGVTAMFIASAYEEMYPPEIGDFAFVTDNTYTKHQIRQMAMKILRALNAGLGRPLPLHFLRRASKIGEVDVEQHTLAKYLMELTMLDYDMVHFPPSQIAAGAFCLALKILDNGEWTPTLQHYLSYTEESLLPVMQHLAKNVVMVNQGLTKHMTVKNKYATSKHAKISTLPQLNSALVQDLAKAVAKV
Variant | normalised enrichment score
YKWKRRLVFGADD [V3W] | 0.545
YKVKRRLVTGADD [F9T] | 0.417
YKVKRRLLFGADD [V8L] | 2.9
YRVKRRLVFGADD [K2R] | 3.88
YKVKRRVVFGADD [L7V] | 0.468
YKVKRRLFFGADD [V8F] | 3.62
YKIKRRLVFGADD [V3I] | 2.89
YKVKRRTVFGADD [L7T] | 0.0537
YKHKRRLVFGADD [V3H] | 0.215
YKVKRRLVFPADD [G10P] | 4.63
YKVKRMLVFGADD [R6M] | 2.74
YKVKRRLVYGADD [F9Y] | 2.14
YKVKRRLVFGGDD [A11G] | 3.95
YKVKRRQVFGADD [L7Q] | -0.0627
YKVKRSLVFGADD [R6S] | 1.01
YKVKRRLVFGAFD [D12F] | 1.97
YMVKRRLVFGADD [K2M] | 4.14
YKGKRRLVFGADD [V3G] | 0.0159

For quick reference, copied from above (block 4):
Variant | normalised enrichment score
YKIKRRLVFGADD [V3I] | 2.89
YKVKRRTVFGADD [L7T] | 0.0537
YKHKRRLVFGADD [V3H] | 0.215
YKVKRRLVFPADD [G10P] | 4.63
